Results of several laboratories.
Each numbered part is a random draw from the data of one study; scales do not carry over between parts. Substitutions count along the parent as printed.

Set 1
Target: CCND3, cyclin fold, Cln2 fusion (human)
Technique: yeast growth competition, sequencing
Sample: yeast
Setting: strong parent motif
Baseline: not given
Direction: higher = stronger binding
Starting sequence: INSM1 docking peptide (human); PKAIRKLHFEDEV; partner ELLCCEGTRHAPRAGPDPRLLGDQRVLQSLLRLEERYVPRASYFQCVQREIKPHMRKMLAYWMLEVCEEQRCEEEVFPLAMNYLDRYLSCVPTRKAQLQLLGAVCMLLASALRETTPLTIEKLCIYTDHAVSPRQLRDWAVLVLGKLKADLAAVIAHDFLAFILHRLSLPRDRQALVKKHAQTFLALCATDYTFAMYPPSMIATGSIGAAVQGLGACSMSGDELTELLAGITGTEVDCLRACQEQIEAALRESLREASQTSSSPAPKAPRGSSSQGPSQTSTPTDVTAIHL
| Substitution | normalised enrichment score |
| --- | --- |
| PKAIRRLHFEDEV [K6R] | 0.971 |
| PKAIRKLDFEDEV [H8D] | 1.38 |
| PKAIRKLIFEDEV [H8I] | 1.88 |
| PKHIRKLHFEDEV [A3H] | 0.216 |
| PKANRKLHFEDEV [I4N] | 0.714 |
| PKAIRKLHWEDEV [F9W] | 0.87 |
| PKATRKLHFEDEV [I4T] | 0.371 |
| PKAIRKLGFEDEV [H8G] | 0.301 |
| PKAIRKGHFEDEV [L7G] | 0.18 |
| PKAIRKYHFEDEV [L7Y] | 0.0456 |
| PKAIRKFHFEDEV [L7F] | -0.179 |
| PKAIRKLHFEDSV [E12S] | 0.98 |
| PKAIRKLHFRDEV [E10R] | 0.386 |
| PKAIRKLHFEDCV [E12C] | 1.02 |
| PSAIRKLHFEDEV [K2S] | 2 |
| PKAIRQLHFEDEV [K6Q] | 1.05 |
| PKAIRILHFEDEV [K6I] | 0.665 |
| PKAIRKLCFEDEV [H8C] | 1.77 |
| PKAITKLHFEDEV [R5T] | 0.359 |
| PPAIRKLHFEDEV [K2P] | 0.607 |
| PKAIRKLHFEAEV [D11A] | 0.519 |

Set 2
Target: ATF7, bZIP domain (human)
Technique: DHFR protein complementation
Sample: yeast
Setting: single substitutions, most at no-binding floor
Baseline: wild-type JUN-FOS pair
Direction: higher = stronger binding
Starting sequence: JUN, bZIP domain (human); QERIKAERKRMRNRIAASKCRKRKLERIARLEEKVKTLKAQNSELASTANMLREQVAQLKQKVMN; partner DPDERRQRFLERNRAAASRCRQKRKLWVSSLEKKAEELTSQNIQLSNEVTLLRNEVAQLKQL
| Substitution | binding fitness [natural log] |
| --- | --- |
| K39G | -1.2 |
| E33D | -0.98 |
| A29M | -1.16 |
| Q55V | -0.984 |
| A46N | -0.826 |
| T48G | -1.44 |
| S47M | -0.861 |
| L38S | -1.6 |
| E44L | -1.09 |
| N42P | -1.51 |

Set 3
Target: Interferon regulatory factor 3, full length, phosphomimetic (IRF3, Homo sapiens, UniProt Q14653, residues 1-427, S386D/S396D/S398D/S402D/T404D/S405D)
Technique: protein-binding microarray
Molecule type: double-stranded DNA, one strand shown
Sample: in vitro
Tested at: 2540 nM top
Setting: 60-bp whole probe
With: salmon DNA 0.4 mg/ml
Baseline: random background probes
Direction: higher = stronger binding
Shared flanks, not repeated: GCCTAGCAC … GTCTTGATTCGCTTGACGCTGCTG
Construct (chain): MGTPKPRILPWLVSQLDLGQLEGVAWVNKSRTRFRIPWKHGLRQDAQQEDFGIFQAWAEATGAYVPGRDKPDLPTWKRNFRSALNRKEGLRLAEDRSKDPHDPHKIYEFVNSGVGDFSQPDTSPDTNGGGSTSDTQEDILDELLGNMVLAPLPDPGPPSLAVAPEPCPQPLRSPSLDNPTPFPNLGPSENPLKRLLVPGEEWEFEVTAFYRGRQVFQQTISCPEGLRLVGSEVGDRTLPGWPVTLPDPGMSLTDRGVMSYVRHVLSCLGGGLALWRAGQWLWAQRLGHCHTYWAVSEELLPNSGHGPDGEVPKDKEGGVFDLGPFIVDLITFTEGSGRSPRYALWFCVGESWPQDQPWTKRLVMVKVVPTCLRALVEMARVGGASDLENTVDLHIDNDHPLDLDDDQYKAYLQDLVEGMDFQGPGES
| Strand | fitted relative affinity [z-score] |
| --- | --- |
| TTATGTCTCCTTTTCCTTTAGTGCTAG | 5.44 |
| ATAGGTCTCCTTATCCTTTAGTGCTAG | 2.86 |
| GCCCCACCCGCTCTGGCCCCGTGCTAG | -0.534 |
| TTACATATCAGTTTCGATTAGTGCTAG | 5.02 |
| GACGATTTCAGACTGGTGACGTGCTAG | 0.872 |
| GACGGACTTGACTTTCGGGACGTGCTA | 0.282 |
| TTAGATTTCAGCATCGATTAGTGCTAG | 0.316 |
| TCTTTCACAAGACGAAAGGAGTGCTAG | 1.62 |
| TTAGGTATCGACTATCCGTTAGTGCTA | 0.664 |
| TCAACTTTCTATGTCTGACTGTGCTAG | 1.04 |
| TCACATATTTGTTTCCAACTGTGCTAG | 3.15 |
| GACGGACTGGGTCTCCGGACGTGCTAG | -0.541 |
| TTCGATATCAGACTGGATTAGTGCTAG | 0.369 |
| TTAGGTCTCCTCCTCCTTTAGTGCTAG | 0.605 |
| TTAGATTTCAGTATCGGTTAGTGCTAG | 3.6 |
| TTAGGACTGGGTATCGGTCAGTGCTAG | -0.0442 |
| TTAGATTTCAGTCTTGATTAGTGCTAG | 2.37 |
| GGAGAGTTCCAGGAGGTCGAGTGCTAG | -0.366 |
| CACGGTCTCGGTTTCGGGACGTGCTAG | 3.73 |

Set 4
Target: Prothrombin, mature alpha-thrombin (F2, Homo sapiens, UniProt P00734)
Technique: aptamer microarray, sandwich
Molecule type: DNA with 2'F-ANA
Sample: in vitro
Tested at: 200 nM
Setting: whole 15-mer aptamer, many near background
With: Cy3 exosite-II aptamer, 400 nM
Direction: higher = stronger binding
Strand: GGTTGGTGTGGTTGG
| Modification | mean fluorescence intensity [a.u.] |
| --- | --- |
| 2'F-ANA at 1 2 4 8 9 11 14 | 47.1 |
| 2'F-ANA at 1 3 6 7 9 14 15 | 78.4 |
| 2'F-ANA at 1 4 5 6 8 10 11 12 13 15 | 45.8 |
| 2'F-ANA at 3 7 8 10 11 12 13 14 15 | 371 |
| 2'F-ANA at 2 4 5 6 7 8 10 11 13 14 15 | 49.9 |
| 2'F-ANA at 1 2 3 4 5 8 14 15 | 55.1 |
| 2'F-ANA at 3 4 5 8 9 13 14 | 47.8 |
| 2'F-ANA at 1 2 4 5 6 7 8 11 | 58.9 |
| 2'F-ANA at 2 4 6 8 9 10 11 12 14 15 | 62.3 |
| 2'F-ANA at 1 4 6 7 8 12 15 | 288 |
| 2'F-ANA at 5 8 9 11 12 14 15 | 47 |
| 2'F-ANA at 1 2 3 4 6 8 9 10 13 | 52.3 |
| 2'F-ANA at 2 9 12 13 | 529 |
| 2'F-ANA at 2 3 4 5 9 11 13 14 | 53.1 |
| 2'F-ANA at 1 2 6 7 10 11 14 | 51.8 |
| 2'F-ANA at 1 2 11 12 13 | 246 |
| 2'F-ANA at 1 2 3 5 9 10 15 | 43.9 |
| 2'F-ANA at 2 4 6 8 9 10 12 13 14 15 | 60.3 |
| 2'F-ANA at 1 3 5 6 7 8 9 11 14 15 | 49.4 |
| 2'F-ANA at 2 3 4 5 6 8 9 10 13 14 15 | 131 |
| 2'F-ANA at 1 2 3 4 5 6 7 8 12 13 14 15 | 182 |
| 2'F-ANA at 1 5 12 13 14 | 41.8 |
| 2'F-ANA at 1 4 5 6 7 8 9 10 12 14 | 48.5 |
| 2'F-ANA at 1 2 4 5 7 9 12 13 | 72.1 |

Set 5
Target: ABI1, truncated, D143A, DHFR fusion (Arabidopsis thaliana)
Technique: DHFR PCA, deep sequencing
Sample: yeast
Setting: methotrexate growth selection, single substitutions
With: (+)-ABA 0.032 µM
Baseline: wild-type fitted maximum
Direction: higher = stronger binding
Starting sequence: PYL1, truncated, DHFR fusion (Arabidopsis thaliana); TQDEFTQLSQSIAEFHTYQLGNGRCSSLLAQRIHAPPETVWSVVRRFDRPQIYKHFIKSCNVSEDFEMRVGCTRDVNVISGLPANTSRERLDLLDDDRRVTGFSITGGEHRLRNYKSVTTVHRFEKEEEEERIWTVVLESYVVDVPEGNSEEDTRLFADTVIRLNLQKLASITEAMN; partner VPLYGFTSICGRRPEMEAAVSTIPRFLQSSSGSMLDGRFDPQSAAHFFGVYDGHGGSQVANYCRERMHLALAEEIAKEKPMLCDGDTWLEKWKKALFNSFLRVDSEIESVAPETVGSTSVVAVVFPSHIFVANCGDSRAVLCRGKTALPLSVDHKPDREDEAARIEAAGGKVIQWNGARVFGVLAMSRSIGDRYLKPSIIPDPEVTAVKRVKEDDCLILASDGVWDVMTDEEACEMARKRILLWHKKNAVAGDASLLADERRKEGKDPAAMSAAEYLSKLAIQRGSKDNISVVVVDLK
| Substitution | relative binding score [%] |
| --- | --- |
| G21W | -0.234 |
| L20I | 35.6 |
| R69C | 19.7 |
| A84N | 28.7 |
| S117G | 7.23 |
| K126H | 38.9 |
| V70W | -0.258 |
| N149Y | 20.5 |
| E174A | -2.29 |
| K168C | 4.05 |
| T6Q | 52.1 |
| L91A | 17.4 |
| V121K | 0.0535 |
| T173M | -3.41 |
| L20Y | 13.2 |

Some of these lines once more (set 5):
| Substitution | relative binding score [%] |
| --- | --- |
| S117G | 7.23 |
| G21W | -0.234 |
| T6Q | 52.1 |
| K126H | 38.9 |
| A84N | 28.7 |
| K168C | 4.05 |
| V70W | -0.258 |
